# Measured values of several laboratories.
# ± marks the error that the study gave.
# EZH2: Histone-lysine N-methyltransferase EZH2 (EZH2, Homo sapiens, UniProt Q15910)
# Sequence of UniProt Q15910 (whole entry, looked up): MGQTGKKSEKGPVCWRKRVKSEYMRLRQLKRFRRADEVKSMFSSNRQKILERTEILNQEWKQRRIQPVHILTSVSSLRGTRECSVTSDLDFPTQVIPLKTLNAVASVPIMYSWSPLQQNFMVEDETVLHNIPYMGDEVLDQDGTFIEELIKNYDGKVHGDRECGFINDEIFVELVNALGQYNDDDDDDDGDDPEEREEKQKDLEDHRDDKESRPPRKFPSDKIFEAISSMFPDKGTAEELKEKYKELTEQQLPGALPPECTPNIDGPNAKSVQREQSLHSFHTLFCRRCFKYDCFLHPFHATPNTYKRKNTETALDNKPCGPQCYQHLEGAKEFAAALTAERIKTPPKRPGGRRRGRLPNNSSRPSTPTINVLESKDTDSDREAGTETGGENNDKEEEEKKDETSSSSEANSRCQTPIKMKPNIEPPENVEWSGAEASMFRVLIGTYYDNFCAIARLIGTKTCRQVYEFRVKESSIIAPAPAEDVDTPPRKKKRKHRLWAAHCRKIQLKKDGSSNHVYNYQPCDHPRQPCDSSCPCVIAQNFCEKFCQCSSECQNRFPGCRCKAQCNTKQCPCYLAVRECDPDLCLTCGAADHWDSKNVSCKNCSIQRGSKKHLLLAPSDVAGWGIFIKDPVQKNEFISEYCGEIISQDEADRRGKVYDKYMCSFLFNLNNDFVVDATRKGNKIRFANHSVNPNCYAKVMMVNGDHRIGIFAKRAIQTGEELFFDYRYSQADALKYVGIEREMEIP
# CNR2: Cannabinoid receptor 2 (CNR2, Homo sapiens, UniProt P34972)
# Sequence of UniProt P21554 (whole entry, unmodified, looked up): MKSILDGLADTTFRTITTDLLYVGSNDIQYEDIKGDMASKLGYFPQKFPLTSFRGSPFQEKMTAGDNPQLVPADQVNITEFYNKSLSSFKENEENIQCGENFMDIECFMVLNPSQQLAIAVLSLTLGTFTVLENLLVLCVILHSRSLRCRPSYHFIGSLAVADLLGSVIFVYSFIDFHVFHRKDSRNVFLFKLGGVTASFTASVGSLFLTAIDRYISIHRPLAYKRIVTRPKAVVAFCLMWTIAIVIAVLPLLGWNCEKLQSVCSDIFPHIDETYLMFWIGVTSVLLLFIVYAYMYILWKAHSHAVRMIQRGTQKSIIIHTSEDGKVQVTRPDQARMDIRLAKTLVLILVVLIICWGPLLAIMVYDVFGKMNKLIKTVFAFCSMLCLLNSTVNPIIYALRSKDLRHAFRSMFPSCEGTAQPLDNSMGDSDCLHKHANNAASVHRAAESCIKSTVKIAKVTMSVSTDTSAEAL
# Sequence of UniProt P34972 (whole entry, looked up): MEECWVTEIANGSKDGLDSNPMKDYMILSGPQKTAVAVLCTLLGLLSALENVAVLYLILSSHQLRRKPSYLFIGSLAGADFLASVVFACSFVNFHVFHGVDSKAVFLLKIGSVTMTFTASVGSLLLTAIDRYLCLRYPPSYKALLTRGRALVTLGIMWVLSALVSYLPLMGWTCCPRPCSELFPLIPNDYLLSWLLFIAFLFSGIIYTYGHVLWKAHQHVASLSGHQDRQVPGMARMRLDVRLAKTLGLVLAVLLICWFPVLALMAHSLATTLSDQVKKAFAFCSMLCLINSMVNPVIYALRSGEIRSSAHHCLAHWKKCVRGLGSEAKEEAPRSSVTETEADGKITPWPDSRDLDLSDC
# Sequence of UniProt Q01959 (whole entry, looked up): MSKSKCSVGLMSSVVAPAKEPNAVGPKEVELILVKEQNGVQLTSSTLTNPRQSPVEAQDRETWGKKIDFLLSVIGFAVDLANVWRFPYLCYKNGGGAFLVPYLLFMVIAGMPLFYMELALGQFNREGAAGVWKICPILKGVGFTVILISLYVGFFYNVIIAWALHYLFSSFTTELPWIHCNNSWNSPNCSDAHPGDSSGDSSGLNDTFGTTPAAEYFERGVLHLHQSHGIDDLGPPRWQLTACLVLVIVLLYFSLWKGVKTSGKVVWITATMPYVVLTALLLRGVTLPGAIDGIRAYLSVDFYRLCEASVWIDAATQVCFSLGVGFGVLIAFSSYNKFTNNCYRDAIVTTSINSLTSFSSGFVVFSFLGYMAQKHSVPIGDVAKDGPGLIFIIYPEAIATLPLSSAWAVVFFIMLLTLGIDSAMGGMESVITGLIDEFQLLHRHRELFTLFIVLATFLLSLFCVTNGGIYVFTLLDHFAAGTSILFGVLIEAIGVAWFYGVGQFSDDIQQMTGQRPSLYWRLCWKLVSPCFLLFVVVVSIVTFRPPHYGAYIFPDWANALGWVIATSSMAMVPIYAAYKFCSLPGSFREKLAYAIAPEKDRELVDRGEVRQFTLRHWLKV
# Sequence of UniProt Q15059 (whole entry, unmodified, looked up): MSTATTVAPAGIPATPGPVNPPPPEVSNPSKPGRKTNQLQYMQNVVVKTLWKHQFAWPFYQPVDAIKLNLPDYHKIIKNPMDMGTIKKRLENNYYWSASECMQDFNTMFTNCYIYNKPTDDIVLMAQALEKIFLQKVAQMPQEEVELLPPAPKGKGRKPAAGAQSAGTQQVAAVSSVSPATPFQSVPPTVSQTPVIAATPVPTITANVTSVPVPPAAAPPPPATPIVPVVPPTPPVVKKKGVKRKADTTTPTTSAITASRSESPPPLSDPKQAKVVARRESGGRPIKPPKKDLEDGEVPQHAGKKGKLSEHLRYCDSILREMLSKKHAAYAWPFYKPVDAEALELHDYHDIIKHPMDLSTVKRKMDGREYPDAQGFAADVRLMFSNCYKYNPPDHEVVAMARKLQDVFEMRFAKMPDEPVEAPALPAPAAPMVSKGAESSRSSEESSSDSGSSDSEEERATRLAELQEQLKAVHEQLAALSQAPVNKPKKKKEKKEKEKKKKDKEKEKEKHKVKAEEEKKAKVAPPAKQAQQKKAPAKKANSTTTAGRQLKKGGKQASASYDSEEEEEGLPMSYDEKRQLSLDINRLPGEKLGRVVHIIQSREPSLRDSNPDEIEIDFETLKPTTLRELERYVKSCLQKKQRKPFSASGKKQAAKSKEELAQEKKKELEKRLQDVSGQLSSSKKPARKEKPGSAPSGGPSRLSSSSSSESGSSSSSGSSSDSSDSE
# Sequence of UniProt P30530 (whole entry, looked up): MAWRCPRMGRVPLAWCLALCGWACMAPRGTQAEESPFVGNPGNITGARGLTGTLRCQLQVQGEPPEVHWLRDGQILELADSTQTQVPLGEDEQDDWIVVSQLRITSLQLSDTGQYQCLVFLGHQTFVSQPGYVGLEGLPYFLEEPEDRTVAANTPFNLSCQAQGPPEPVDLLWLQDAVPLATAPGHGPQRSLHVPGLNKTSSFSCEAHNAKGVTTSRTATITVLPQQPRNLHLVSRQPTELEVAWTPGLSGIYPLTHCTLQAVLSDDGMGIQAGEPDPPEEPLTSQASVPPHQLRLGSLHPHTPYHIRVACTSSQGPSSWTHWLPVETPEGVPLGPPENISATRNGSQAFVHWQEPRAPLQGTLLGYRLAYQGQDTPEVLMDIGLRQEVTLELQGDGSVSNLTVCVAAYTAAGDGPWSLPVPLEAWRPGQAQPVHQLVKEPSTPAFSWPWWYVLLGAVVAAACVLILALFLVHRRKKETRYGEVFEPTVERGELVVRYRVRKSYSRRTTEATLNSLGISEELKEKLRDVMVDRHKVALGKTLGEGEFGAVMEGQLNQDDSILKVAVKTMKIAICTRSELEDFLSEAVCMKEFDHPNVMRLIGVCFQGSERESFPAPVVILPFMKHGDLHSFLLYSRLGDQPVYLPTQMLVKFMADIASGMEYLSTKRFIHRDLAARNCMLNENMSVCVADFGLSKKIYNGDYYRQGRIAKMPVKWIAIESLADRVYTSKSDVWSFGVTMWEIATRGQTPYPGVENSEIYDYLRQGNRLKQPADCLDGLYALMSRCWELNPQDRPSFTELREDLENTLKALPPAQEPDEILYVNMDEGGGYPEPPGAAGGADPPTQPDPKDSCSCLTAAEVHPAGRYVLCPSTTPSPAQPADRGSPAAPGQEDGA
# Sequence of UniProt P0A988 (whole entry, looked up): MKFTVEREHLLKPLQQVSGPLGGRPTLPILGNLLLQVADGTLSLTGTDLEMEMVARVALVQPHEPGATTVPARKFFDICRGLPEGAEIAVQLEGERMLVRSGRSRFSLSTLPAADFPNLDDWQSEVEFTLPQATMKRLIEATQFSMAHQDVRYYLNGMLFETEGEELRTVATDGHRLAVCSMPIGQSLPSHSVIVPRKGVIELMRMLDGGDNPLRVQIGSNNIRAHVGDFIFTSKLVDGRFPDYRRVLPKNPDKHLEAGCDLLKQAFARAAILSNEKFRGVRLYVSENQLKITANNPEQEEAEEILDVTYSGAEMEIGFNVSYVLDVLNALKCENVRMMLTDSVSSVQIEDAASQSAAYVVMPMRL
# Sequence of UniProt P24462 (whole entry, looked up): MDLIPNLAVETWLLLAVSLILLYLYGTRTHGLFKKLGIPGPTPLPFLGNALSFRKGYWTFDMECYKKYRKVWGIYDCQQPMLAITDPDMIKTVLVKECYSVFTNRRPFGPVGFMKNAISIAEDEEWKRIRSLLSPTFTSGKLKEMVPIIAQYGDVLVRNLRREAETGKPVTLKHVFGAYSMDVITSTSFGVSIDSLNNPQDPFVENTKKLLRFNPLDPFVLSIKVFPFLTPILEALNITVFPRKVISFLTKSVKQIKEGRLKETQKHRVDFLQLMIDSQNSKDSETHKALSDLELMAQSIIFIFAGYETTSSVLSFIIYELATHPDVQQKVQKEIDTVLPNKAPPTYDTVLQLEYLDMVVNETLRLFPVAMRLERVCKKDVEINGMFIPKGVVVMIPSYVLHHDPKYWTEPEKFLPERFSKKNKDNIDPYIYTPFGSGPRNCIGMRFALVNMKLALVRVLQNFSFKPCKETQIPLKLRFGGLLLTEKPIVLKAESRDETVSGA
SMILES,target or system,assay,system,setting,how to read,measurement,result
COc1ccccc1C(C[N+](=O)[O-])c1c(-c2ccccc2)[nH]c2ccccc12 (stereo not drawn),"CNR1 (Homo sapiens, UniProt P21554, V249A)","Gαi1-γ2 dissociation, BRET",,,,Emax,92.3 ± 7.47%
COC1CN([C@H]2CC[C@H]([C@@H](C)n3c(C)c(C(=O)NCc4c(C)cc(C)[nH]c4=O)c4ccccc43)CC2)C1,EZH2,"binding, TR-FRET",,with: H3K27me3 activating peptide,,residence time,174 min
CC(C)CC(C(=O)N1CC2(CC1C#N)C(=O)Nc1ccccc12)N(C)C(=O)c1cc2c(F)cc(F)c(F)c2[nH]1 (stereo not drawn),"Papain (Carica papaya, UniProt P00784)","enzyme activity, inhibitor",,,,Hill slope,-0.42
CCC[C@H](C(=O)c1ccccc1)N1CCCC1,"SLC6A3 (Homo sapiens, UniProt Q01959)","DAT-mediated current recovery, electrophysiology",human DAT-expressing cells,"100 µM, with: 30 µM dopamine",,koff,0.051 s⁻¹
CCCCCn1cc(C(=O)c2ccc3c(c2)CC(C)(C)C3)c2ccccc21,CNR2,"agonist, BRET",,,"relative to: Gαi1 over β-arrestin 2, reference agonist",bias factor (ΔΔlog(Emax/EC50)),-0.59
Cc1ccc2c(C(C[N+](=O)[O-])c3cccs3)c(-c3ccccc3)[nH]c2c1 (stereo not drawn),"CNR1 (Homo sapiens, UniProt P21554, S199A)","β-arrestin recruitment, agonist, luciferase",,,,Emax,46.5%
CC(C)(C)C(=O)OCOP(=O)(OCOC(=O)C(C)(C)C)C1CCCN(O)C1=O (stereo not drawn),BT-549,,,,,GI50,313 nM
CSc1cc(C)[nH]c(=O)c1CNC(=O)c1c(C)n([C@H](C)C2CCN(CC(F)(F)F)CC2)c2ccccc12,EZH2,"binding, jump dilution",,with: H3K27me3 activating peptide,,residence time,780 min
CCCCCn1cc(C(=O)c2ccc3ccccc3c2)c2ccccc21,CNR2,"cAMP inhibition, agonist, CAMYEL BRET biosensor",,with: forskolin 10 µM,relative to: reference agonist at wild type,Emax,75.1 ± 5.1%
CC(=O)N[C@@H](CCC(=O)O)C(=O)N[C@@H](CCC(N)=O)C(=O)N[C@H](C(=O)N[C@@H](CCC(=O)O)C(=O)N[C@@H](CC(C)C)C(=O)N[C@@H](CCC(=O)O)C(=O)N[C@@H](Cc1ccccc1)C(=O)N[C@@H](CC(=O)O)C(=O)O)C(C)C,"Beta sliding clamp (Escherichia coli, UniProt P0A988)",isothermal titration calorimetry,,"concentration not given, pH 7.4, 25 °C",,binding enthalpy,-9.8 ± 1.2 kcal/mol
COc1cc(C)[nH]c(=O)c1CNC(=O)c1c(C)n([C@H](C)[C@H]2CC[C@H](N3CC(OC)C3)CC2)c2ccccc12,EZH2,"binding, TR-FRET",,with: H3K27me3 activating peptide,,residence time,360 min
Cc1sc2c(c1C)C(c1ccc(Cl)cc1)=N[C@@H](CC(=O)OC(C)(C)C)c1nnc(C)n1-2,"Bromodomain-containing protein 3, BD1 (BRD3, Homo sapiens, UniProt Q15059)",isothermal titration calorimetry,,"15 °C, reverse titration",,observed ΔH,-6.57 ± 0.017 kcal/mol
Nc1ccc(/C=C/C(=O)N2CCc3c(oc4c(-c5ccc(F)cc5)cc(-c5ccc(C(=O)N6CCC(F)(F)CC6)cn5)cc34)C2)cn1,"AXL (Homo sapiens, UniProt P30530)","binding, competition with immobilised ligand",,1 µM,,remaining binding,100%
Nc1ccn([C@@H]2O[C@H](COP(=O)(O)OP(=O)(O)OP(=O)(O)O)[C@@H](O)[C@@H]2O)c(=O)n1,"RNA-directed RNA polymerase PB1, with PA and PB2 (Influenza B virus, UniProt Q5V8Y6)","single-nucleotide incorporation, substrate",,,,Vmax,0.47 product fraction
COC1CN([C@H]2CC[C@H]([C@@H](C)n3c(C)c(C(=O)NCc4c(SC)cc(C)[nH]c4=O)c4ccccc43)CC2)C1,EZH2,"binding, TR-FRET",,with: H3K27me3 activating peptide,,residence time,8400 min
O=C1NC2(CC2)COc2ncc(F)cc2[C@H]2COCCN2c2ccn3ncc1c3n2,,,"Sprague-Dawley rat, female, heart","oral, 20 mg/kg/day, 4 weeks, end of treatment",,organ-to-brain weight ratio,71.5 ± 10.9%
CC12CCC3C(CC=C4CC(OS(=O)(=O)O)CCC43C)C1CCC2=O (stereo not drawn),"Cytochrome P450 3A7 (CYP3A7, Homo sapiens, UniProt P24462)","16α-hydroxylation, substrate, recombinant Supersomes",,,,Hill coefficient,1.2
COc1ccccc1-c1n[nH]c2nc(NC3CCN(C(=O)Cc4ccc(F)cc4F)CC3)ncc12,,"bead binding, competition bead pull-down, refers to: LINJ.25.1220",Leishmania donovani axenic amastigote extract,10 µM,relative to: vehicle,relative abundance,1.29
